Assay results from different studies.
Every numbered part comes from another study and shows a few of its results, in no order. Substitutions count along the parent as printed.

Set 1 — technique: RNA Bind-n-Seq; form: RNA; medium: in vitro; tested at: not given; relative to: input RNA pool; direction: higher = stronger binding; quantity: bound/input enrichment
Target: RING finger protein unkempt homolog, zinc fingers 1-6, GST-SBP tag (UNK, Homo sapiens, UniProt Q9C0B0, residues 30-357)
Notes: RNA with constant flanks, human-mouse chimeric sites, ends assumed
All sequences stand within: GGGAGUUCUACAGUCCGACGAUC … CAACAGAGGAUUGAGCAUCA
Construct (chain): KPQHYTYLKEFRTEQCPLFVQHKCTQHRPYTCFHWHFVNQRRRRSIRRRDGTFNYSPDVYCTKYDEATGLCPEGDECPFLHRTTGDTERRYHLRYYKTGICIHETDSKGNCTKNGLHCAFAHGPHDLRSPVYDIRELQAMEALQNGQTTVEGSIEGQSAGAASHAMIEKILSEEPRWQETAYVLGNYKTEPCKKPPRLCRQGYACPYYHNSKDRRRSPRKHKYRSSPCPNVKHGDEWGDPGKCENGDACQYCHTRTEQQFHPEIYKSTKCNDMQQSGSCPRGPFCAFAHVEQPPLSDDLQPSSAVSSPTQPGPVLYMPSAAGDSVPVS
GAUAAGAAAAGCUUGUUGGAGACCCGCUUGCACAUCACUGGUAGAGACCUGAGGUGUCAAAUAGCUGAAACUUUCGGACUUCAAGAAAAUUACAUCAAGAUCGUAAUAAAUAAGAAACAG: 0.274 ratio
CUGUUUUGACAGCCACAAAUUCUUGGCAUGUAUUAAGAAAAAAAAAAAUCCCUGUUGAAGUAGUUUUUCCACCUAUCAGCACUGAGUAAAUGCCAUAACUCCGCGGAAAUGGUCUAAAUA: 0.277 ratio
ACAGUUAUAUUGUUGAGGUUUGUAUUUAUAUAUUCUUGUAGUGUCUGCUUGCCUGUGACUUCUGGUAAAAUAAGACUAGCCUUUGAAAAUAUUUUAGCAUGGUAUUUAACAUUUUCUAAA: 14.8 ratio
GUGCCCUUCUCGCUGCUGCGGAGCCCGCCCAGCUGGGCAUUCCGGGACGACUGGUACGCACACAGCCGCCUCUUCGAUCAAGCUUUCGGGGUGCCCCGGUUGCCCGAUGAGUGGUCGCAG: 0.0938 ratio
GAUCAUGAACCACCAUCAGAAAUGAAGAUGAGAUUACCCAGACGAGCCAAAACAGCUGCGCUACAGAAAAGUAAACUUAACCUUGCAGAGUUCCUUAAAUGAAGAUCUAAGUUAGGAAGC: 0.383 ratio
GAUCCACAGUGGUCUGAGGAACAGCUGAUUGCUGCAAAAUUCUGUUUUGCUGGCCUUGUUAUAGGGCAGACUGAAGUGGAUAUCAUGAGUCAUGCCACACAAGCUAUUUUUGAAAUUCUG: 0.323 ratio
CUGUUUUACAGCCACACCAAUCUUGGCAUGUAUUAAGGAAAAAAAAAAUCCCUGUUGAAGUAGUUUUUCCACCUAUCAGCACUGAGUAAAUGCCAUAAAUCCAUUGAAAUGGUCUAAAUA: 0.221 ratio
CAGCGCCGAGGCCGCGGUUUCCCCCUGGGCCUCCCCAGCAGCAGCCAUGGGCAUCAAGUUUUUAGAAGUUAUCAAACCUUUCUGUGCAGUUCUACCAGAAAUUCAGAAACCGGAAAGGAA: 1.43 ratio
CUAAUCCCCUUUACUGCUCCCCCACUUCUCAUGGUAAUAACAAAGUCUUAUAUCCCCGUCCUAGCUUUCACUCAGAUGGCUUAUGGAGCCGGUUUCCUAGCUUUCUUGGGAGGGAUCAGA: 0.409 ratio
UAUAUCACCAAUGUUCUACAAAAUCCUGACUUGGCUCUGAGAAUGGCUGUGCGGAACAACUUAGCUGGUGCUGAAGAACUCUUUGCCCGGAAAUUUAAUGCUCUCUUUGCCCAGGGAAAC: 0.299 ratio
AUUGUUGAAGCUAACCCACUUUUAGAAGCAUUUGGAAAUGCGAAGACUGUUCGCAACAAUAAUAGCAGUCGAUUUGGAAAAUUUGUAGAAAUUCAUUUCAAUGAAAAGAGUUCGGUUGUU: 1.8 ratio

Set 2 — technique: competition protein-binding microarray; form: double-stranded DNA, one strand shown; medium: in vitro; tested at: 2 µM; added: Cbf1 competitor, 0.05 µM; direction: higher = stronger binding; quantity: fluorescence intensity; all sequences stand within: … GTCTTGATTCGCTTGACGCTGCTG
Target: Phosphate system positive regulatory protein PHO4, full length, GST-tagged (PHO4, Saccharomyces cerevisiae, UniProt P07270, residues 1-312)
Notes: whole 60-bp probe, lowest competitor level
Residues (chain): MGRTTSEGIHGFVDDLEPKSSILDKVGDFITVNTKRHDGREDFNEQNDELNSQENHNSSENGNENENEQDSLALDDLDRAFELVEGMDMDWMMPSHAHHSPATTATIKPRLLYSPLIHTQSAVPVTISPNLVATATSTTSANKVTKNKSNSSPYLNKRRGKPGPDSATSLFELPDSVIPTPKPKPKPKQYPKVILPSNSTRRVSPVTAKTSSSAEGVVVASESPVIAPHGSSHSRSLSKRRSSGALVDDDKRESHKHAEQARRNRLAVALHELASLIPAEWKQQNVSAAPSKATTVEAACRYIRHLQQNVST
CGTCCTAGTGATTGGACCGTGGGTGCCATGAGGAAG: 9930 a.u.
TGCGCAACAACTTGTACCGTGGGTGTATGTCTAGAA: 6970 a.u.
CACGACTTGGCTACTCATTCTTTGTGAAACCTTAGA: 3430 a.u.
TGATTGAAAACCAACAATGTGACAGTGAAAACAACA: 6170 a.u.
CTCGTTCAGACGAGTCACGTCGGTAGCCAGACCGGT: 4090 a.u.
CTTCTGTAAATTTGGCTGGTGGGTGGACGCGCCCCG: 4860 a.u.
GTCAGAAAGCCGGGTAAGGTGTGCCAGCGAGAGTAA: 5510 a.u.
CTAAACAGTCCGCCCAACGTGGTCGAGTTTGCTTTA: 13300 a.u.
CGTAGTATGGCAATATTCGTGGGTATAACATTCTGC: 5590 a.u.
AAATTACTAAGTTGATGCGTGGGTGACGCCGTATGA: 8230 a.u.
GAATGCTTCTGTCTCTGCGTGCTTTTCAAAGGAGAA: 6760 a.u.
GGCGTCGTACAAGAGAACGTGGGTACTTTTTAGGCT: 13700 a.u.
GTTACTATTCTTTGCATCGTGCATCGACTTACACCA: 11200 a.u.
TTGTAAGGTGCAATGCACATGAGTGATTGTTAAAAA: 7220 a.u.
CTAAAGTATATGACTCACGTGGTCGAAAGAAAGCGG: 18900 a.u.
GCAGAAGTAGCCAAAGATGTGACGCTACCGTTGTGA: 3310 a.u.
TGGAATAACAGTTGGCATGTGCCCACTGTATTCATG: 12200 a.u.
CATACCCAACCTTGACTAGTGGGTGAAGATATTTGT: 3580 a.u.
GCCGTTGAGTGCTTCGACGTGGCCGTCGAGTCCCCT: 4260 a.u.
AAATTACTAAGTTTTCACGTGCGATACCCCGTATGA: 14600 a.u.
GTCAACAACAACAACCTCGTGACAAATAGTTTGTAA: 10900 a.u.
CTTTTAGGAATCCATCACGTGATGGGGATATCTACG: 14700 a.u.
AAATGAACTGCCAATAACATGCAAGAATGAAGACGG: 5300 a.u.
AAAAAGATGCACCATCACGTGCTAAAAATCTAACAT: 14000 a.u.
TAACCCAGTTGTAACCAGATGGAGTCATTCTACCGG: 2720 a.u.

Set 3 — technique: DHFR PCA, deep sequencing; medium: yeast; added: (+)-ABA 0 µM; relative to: wild-type fitted maximum; direction: higher = stronger binding; quantity: relative binding score
Target: ABI1, truncated, D143A, DHFR fusion (Arabidopsis thaliana)
Notes: methotrexate growth selection, single substitutions
Starting sequence: PYL1, truncated, DHFR fusion (Arabidopsis thaliana); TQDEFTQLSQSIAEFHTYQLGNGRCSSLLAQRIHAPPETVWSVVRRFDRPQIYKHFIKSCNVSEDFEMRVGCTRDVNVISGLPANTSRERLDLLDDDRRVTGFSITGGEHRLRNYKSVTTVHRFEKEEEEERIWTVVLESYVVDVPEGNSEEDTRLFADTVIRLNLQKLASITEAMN; partner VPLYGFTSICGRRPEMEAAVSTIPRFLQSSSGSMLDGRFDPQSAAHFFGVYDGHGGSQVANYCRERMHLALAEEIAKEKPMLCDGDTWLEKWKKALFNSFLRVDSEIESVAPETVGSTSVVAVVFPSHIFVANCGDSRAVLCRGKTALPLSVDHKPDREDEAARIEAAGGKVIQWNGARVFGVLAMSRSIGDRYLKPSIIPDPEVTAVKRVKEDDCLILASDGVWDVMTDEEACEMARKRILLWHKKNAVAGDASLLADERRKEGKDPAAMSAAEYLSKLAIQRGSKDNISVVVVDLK
L8D: -3.94%
L91C: 4.48%
N177P: 15%
L91S: 1.19%
S11A: 42.4%
C60H: 3.93%
R99G: -3.99%
E139R: 5.81%
C25Y: -2.63%
W134K: 5.67%
S150D: 14.2%

Set 4 — technique: protein-binding microarray; form: double-stranded DNA, one strand shown; medium: in vitro; tested at: 250 nM; notes: 60-bp whole probe; added: salmon DNA 0.4 mg/ml; relative to: random background probes; direction: higher = stronger binding; quantity: log fluorescence; all sequences stand within: GCCTAGCAC … GTCTTGATTCGCTTGACGCTGCTG
Target: Interferon regulatory factor 7, full length, phosphomimetic (IRF7, Homo sapiens, UniProt Q92985, residues 1-503, S101K/S471D/S472D/S475D/S476D/S477D/S483D/S484D/S487D)
Target sequence (chain): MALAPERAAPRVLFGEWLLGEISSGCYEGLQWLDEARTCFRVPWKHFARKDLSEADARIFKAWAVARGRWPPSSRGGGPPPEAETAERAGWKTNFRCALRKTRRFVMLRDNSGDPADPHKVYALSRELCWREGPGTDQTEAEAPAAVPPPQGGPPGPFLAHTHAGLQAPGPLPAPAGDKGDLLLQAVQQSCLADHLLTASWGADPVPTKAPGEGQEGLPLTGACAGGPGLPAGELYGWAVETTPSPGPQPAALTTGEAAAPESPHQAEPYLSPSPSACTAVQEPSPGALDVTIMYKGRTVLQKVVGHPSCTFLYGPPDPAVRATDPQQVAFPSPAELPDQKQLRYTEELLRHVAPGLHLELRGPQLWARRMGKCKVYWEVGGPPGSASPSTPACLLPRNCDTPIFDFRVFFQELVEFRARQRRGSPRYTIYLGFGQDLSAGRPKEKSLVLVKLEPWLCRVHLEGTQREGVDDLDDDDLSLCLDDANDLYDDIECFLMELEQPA
GACGGTATCCTACTTCTGACGTGCTAG: -0.136 z-score
CTCTGCTTGTGTCTGGGCTTGTGCTAG: -0.541 z-score
TCACACTTCCTTCTGCCACTGTGCTAG: 0.314 z-score
TTAGATTTCAGTATCGTTTAGTGCTAG: 1.34 z-score
CTGAGGCTGTGTTTTCACTTTGTGCTA: -0.15 z-score
TTAGGTCTCCATCTCCTTTAGTGCTAG: 0.319 z-score
GACGAGCTGAGTATCGAGACGTGCTAG: -0.4 z-score
TTAGGTATCCTTATTCTTTAGTGCTAG: 0.42 z-score
TCAAAACTCGTATGTGACACTGTGCTA: 0.00777 z-score
TTAGGTTTCCTTCTCCTTTCGTGCTAG: 2.85 z-score
TTAGGTTTCCTTTCTCTTTAGTGCTAG: 5.95 z-score
GACGGACTGGCCTTTCGGGACGTGCTA: -1.05 z-score
TCACTTTGGCCTCTAGGACTGTGCTAG: 0.344 z-score
GACGTACTGGGGTATCGGGACGTGCTA: 0.0915 z-score
GACGAACTGGGGACTGGAGTCGTGCTA: -0.199 z-score
TTAGCTCTCCTTCTCCTTTAGTGCTAG: -0.28 z-score
TCAAATTCCAAGTTCATACTGTGCTAG: 0.925 z-score
GACGGTTTCGCTTTCGGGACGTGCTAG: 12.9 z-score
CTCAGGTAATATTTCCTGCTGTGCTAG: 0.00745 z-score
GACGGACTACTTCTCCTGACGTGCTAG: -0.282 z-score
TTAGGTCTCGGATTGGGTTAGTGCTAG: 3.16 z-score
GACGGTATCGGGTTTCGGGATGTGCTA: 4.23 z-score
TTAGATATCAGTTTCGACTAGTGCTAG: 3.75 z-score
CAGCCTCTGAGCAGCTCGGCGTGCTAG: -0.603 z-score
GACGGTTTCCGTCTCGGGACGTGCTAG: 2.2 z-score

Set 5 — target: CCNE1, cyclin fold, Cln2 fusion (human); technique: yeast growth competition, sequencing; medium: yeast; notes: weak parent motif; relative to: not given; direction: higher = stronger binding; quantity: normalised enrichment score
Starting sequence: CENPC docking peptide (human); VKTKKRLNFDDKV
AKTKKRLNFDDKV [V1A]: 0.549
VKTKKRLNFDDKA [V13A]: -0.49
VKTKKALNFDDKV [R6A]: 0.772
VKTKKRLNFDAKV [D11A]: 0.491
VKTKARANFDDKV [K5A L7A]: 0.0583
VKTKRRLNFDDKV [K5R]: 4.38
VKTKKRLNLDDKV [F9L]: -0.0585
VKTKKRLNADDKV [F9A]: 0.376
VKTKARLNFDDKV [K5A]: 0.176
VKTKKRANFDDKV [L7A]: 0.325

Mixed results
PhoQ, residues 284 288 289 292 302 303 ASASEQ — fold induction (PhoP, residues 12 14 15 18 19 LWHVM (Escherichia coli, UniProt P23836); Sort-seq, measured: YFP reporter; E. coli; PhoQ-PhoP variant library, added: 10 µM Mg2+; relative to: high Mg2+ state, higher = stronger signaling): 22.7

A few entries again (set 4):
TTAGGTCTCCATCTCCTTTAGTGCTAG: 0.319 z-score
GACGAGCTGAGTATCGAGACGTGCTAG: -0.4 z-score
TTAGGTATCCTTATTCTTTAGTGCTAG: 0.42 z-score
TCAAAACTCGTATGTGACACTGTGCTA: 0.00777 z-score
TTAGGTTTCCTTCTCCTTTCGTGCTAG: 2.85 z-score
TTAGGTTTCCTTTCTCTTTAGTGCTAG: 5.95 z-score
GACGGACTGGCCTTTCGGGACGTGCTA: -1.05 z-score
TCACTTTGGCCTCTAGGACTGTGCTAG: 0.344 z-score
GACGTACTGGGGTATCGGGACGTGCTA: 0.0915 z-score
GACGAACTGGGGACTGGAGTCGTGCTA: -0.199 z-score
TTAGCTCTCCTTCTCCTTTAGTGCTAG: -0.28 z-score
